Values quoted from earlier work, collected from citations in different studies.
Compare with care: the assays were run in different laboratories.
Sequence of UniProt Q16288 (whole entry, looked up): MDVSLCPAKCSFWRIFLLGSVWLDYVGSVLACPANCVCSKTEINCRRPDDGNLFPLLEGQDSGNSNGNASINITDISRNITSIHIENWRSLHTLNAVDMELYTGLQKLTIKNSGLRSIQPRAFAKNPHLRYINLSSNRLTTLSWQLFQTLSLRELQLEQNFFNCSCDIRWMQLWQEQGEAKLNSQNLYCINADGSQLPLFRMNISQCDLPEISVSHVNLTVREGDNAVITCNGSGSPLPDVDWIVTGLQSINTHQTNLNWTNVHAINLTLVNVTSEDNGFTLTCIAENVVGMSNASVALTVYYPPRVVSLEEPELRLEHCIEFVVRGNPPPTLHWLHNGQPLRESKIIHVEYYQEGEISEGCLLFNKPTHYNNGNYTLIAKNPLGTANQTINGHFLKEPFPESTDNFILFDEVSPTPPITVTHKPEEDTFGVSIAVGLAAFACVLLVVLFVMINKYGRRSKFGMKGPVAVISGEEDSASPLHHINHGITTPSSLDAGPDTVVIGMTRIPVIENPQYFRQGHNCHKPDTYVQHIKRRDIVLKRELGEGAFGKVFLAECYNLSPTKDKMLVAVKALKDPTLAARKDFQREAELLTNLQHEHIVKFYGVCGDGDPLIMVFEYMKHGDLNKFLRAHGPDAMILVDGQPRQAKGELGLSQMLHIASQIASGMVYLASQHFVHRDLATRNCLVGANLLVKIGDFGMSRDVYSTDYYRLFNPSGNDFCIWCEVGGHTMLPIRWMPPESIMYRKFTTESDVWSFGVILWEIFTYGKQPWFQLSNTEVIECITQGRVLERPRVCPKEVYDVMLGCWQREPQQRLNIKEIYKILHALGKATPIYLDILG

For `CC(=O)[C@H]1CC[C@H]2[C@@H]3CCC4=CC(=O)CC[C@]4(C)[C@H]3CC[C@]12C`, the solubility was 25.5 µg/mL (FaSSIF; literature value).
For `NC(=O)N1c2ccccc2C=Cc2ccccc21`, the solubility was under 200 µg/mL.
With `Sc1ncnc2nc[nH]c12` the solubility was under 1000 µg/mL (water).
`CCC(C)n1ncn(-c2ccc(N3CCN(c4ccc(OCC5COC(Cn6cncn6)(c6ccc(Cl)cc6Cl)O5)cc4)CC3)cc2)c1=O` (centres unmarked) gave a solubility of 8 µg/mL (pH 6.50).
The solubility of `O=C(NC[C@H]1CN(c2ccc(N3CCOCC3=O)cc2)C(=O)O1)c1ccc(Cl)s1` is reported as 9.9 µg/mL (FaSSIF; literature value).
With `COc1ccc2c(c1)c(CC(=O)O)c(C)n2C(=O)c1ccc(Cl)cc1` the solubility was under 1000 µg/mL (water).
With `CO[C@H]1/C=C/O[C@@]2(C)Oc3c(C)c(O)c4c(O)c(c(/C=N/N5CCN(C)CC5)c(O)c4c3C2=O)NC(=O)/C(C)=C\C=C\[C@H](C)[C@H](O)[C@@H](C)[C@@H](O)[C@@H](C)[C@H](OC(C)=O)[C@@H]1C` the solubility was 2800 µg/mL (pH 7.5).
`Nc1ccn([C@@H]2O[C@H](CO)[C@@H](O)C2(F)F)c(=O)n1` gave a solubility of 824 µg/mL (water).
`Cc1ccc(Nc2nccc(N(C)c3ccc4c(C)n(C)nc4c3)n2)cc1S(N)(=O)=O.Cl` has a solubility of 1.2 µg/mL (FaSSIF; literature value).
With `Nc1cc(C(F)(F)F)c(-c2nc(N3CCOCC3)nc(N3CCOCC3)n2)cn1` the remaining activity was 92% (NTRK3 (Homo sapiens, UniProt Q16288); enzyme activity; 10 µM; relative to: untreated).
For `CC(C)C[C@H](NC(=O)[C@H](CCc1ccccc1)NC(=O)CN1CCOCC1)C(=O)N[C@@H](Cc1ccccc1)C(=O)N[C@@H](CC(C)C)C(=O)[C@@]1(C)CO1`, the solubility was about 10 µM (PBS).
`C#Cc1cccc(Nc2ncnc3cc(OCCOC)c(OCCOC)cc23)c1` gave a solubility of 12.4 µg/mL (FaSSIF; literature value).
With `O=c1c(-c2ccc(O)cc2)coc2cc(O)cc(O)c12` the solubility was under 1000 µg/mL (water).
The solubility of `C[C@@H](Oc1ccc(S(C)(=O)=O)cc1C(=O)N1C[C@@H]2C[C@]2(c2cc(C(F)(F)F)on2)C1)C(F)(F)F` is reported as 42.3 µg/mL (FeSSIF).
With `CN(CCOc1ccc(CC2SC(=O)NC2=O)cc1)c1ccccn1` (centres unmarked) the solubility was under 1000 µg/mL (water).
`CCC[C@H](NC(=O)[C@@H]1[C@H]2CCC[C@H]2CN1C(=O)[C@@H](NC(=O)[C@@H](NC(=O)c1cnccn1)C1CCCCC1)C(C)(C)C)C(=O)C(=O)NC1CC1` has a solubility of 120 µg/mL (FaSSIF; literature value).
For `CCCN(CCC)S(=O)(=O)c1ccc(C(=O)O)cc1`, the solubility was under 1000 µg/mL (water).
With `CC1(C)CCC(CN2CCN(c3ccc(C(=O)NS(=O)(=O)c4ccc(NCC5CCOCC5)c([N+](=O)[O-])c4)c(Oc4cnc5[nH]ccc5c4)c3)CC2)=C(c2ccc(Cl)cc2)C1` the solubility was 0.0337 µg/mL (FaSSIF; literature value).
`CC(C)(C)c1cc(C(C)(C)C)c(NC(=O)c2c[nH]c3ccccc3c2=O)cc1O` gave a solubility of under 1000 µg/mL (water).
`CC(O)C(C)n1ncn(-c2ccc(N3CCN(c4ccc(OCC5COC(Cn6cncn6)(c6ccc(Cl)cc6Cl)O5)cc4)CC3)cc2)c1=O` (centres unmarked) has a solubility of 1 µg/mL (pH 7).

Excerpt of the above:
`CCC(C)n1ncn(-c2ccc(N3CCN(c4ccc(OCC5COC(Cn6cncn6)(c6ccc(Cl)cc6Cl)O5)cc4)CC3)cc2)c1=O` (centres unmarked) gave a solubility of 8 µg/mL (pH 6.50).
The solubility of `O=C(NC[C@H]1CN(c2ccc(N3CCOCC3=O)cc2)C(=O)O1)c1ccc(Cl)s1` is reported as 9.9 µg/mL (FaSSIF; literature value).
With `COc1ccc2c(c1)c(CC(=O)O)c(C)n2C(=O)c1ccc(Cl)cc1` the solubility was under 1000 µg/mL (water).
